Measured values pooled from the literature.
Each numbered part is a random draw from the data of one study; scales do not carry over between parts. Changes are numbered by the printed parent chain.

Set 1
Target: RNA binding protein fox-1 homolog 2, RRM domain, GST-SBP tag (RBFOX2, Homo sapiens, UniProt O43251-10, residues 100-194)
Method: RNA Bind-n-Seq
Form: RNA
Medium: in vitro
Concentration: 365 nM
Setting: natural RNA segment, single round, ends assumed
Relative to: no-protein control
Direction: higher = stronger binding
Constant ends, left off below: GGGAGUUCUACAGUCCGACGAUC … UGGAAUUCUCGGGUGCCAA
Residues (chain): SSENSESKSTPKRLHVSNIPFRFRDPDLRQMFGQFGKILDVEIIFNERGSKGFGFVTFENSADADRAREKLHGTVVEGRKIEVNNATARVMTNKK
| Oligonucleotide | RBNS enrichment (R) |
| --- | --- |
| UAAAUUUUCCUAGCUGUAAGCUUAAGUCUCCUUUGUAUCCCUCUGUUGGUGGGGAAAGGUGUCUUUCUUUCUGCCCCUUCCCCUUAAAUAAUUGUGUUCAUUUUUGUUUU | 1.34 |
| AGCUCUCAAGUUCACCCUUUAGGGAAAAGUUAUUUUGUUUACAUUAUUAUAAGGGAUUUGUGAUGUCUGUAAAGUGUAACCUAGGAAAGAUAAUUCAACCAUCUAAUCAA | 0.465 |
| UGGAGACAAAAGUCCUAUUUUCUGUUUUCUUUUGUCUUUUGAUCUUUAAUUCACUAAUUAAUAGUGACCUGUUGUUAAAUCCAAAUCCACUUUGCUGAAAAAUACUGUAC | 0.605 |
| CCACCUGAAACAUCCCAGCAGGCCCCUUGCUGCCAUGCCUUAUGGUUCCCAAUCAGCCAUUACCAUCUCCACCUGCCGCCAGCCACCAAAUCACCAGCAGGAGGGUCUGC | 0.883 |
| GUUCACAACUAAGAAUAAAUACCUAGAGCUACUUGUGAGUGAAUCAUUGGCUUCUAGAAAUCAGAUGCCCAGAUGAUCCAAGACUAGUUUGUUAUCUCAUCUGGAACCUA | 0.283 |
| AGAUGCUUGAAAUUUAACACUUUUCACUUGGUUCUUAUACUGAAUGCCGACUCUGCUCUGUGUUAGAGAUAUGAAAUGGUGUUUGAUACUGUUUGAGACAUUAUGGAGAG | 0.559 |
| UCUUUGCGCCCUUCCCGGCUGCUGCCUGGGGCCCUUUCCUGCUCUCCCGUCCGCUGUGGGUGGUCCCCAGCUCUCCUCUGUGGGUUUUACCGGAAAGGUGGCCCCAGCUG | 0.413 |
| UCCUUGCGCAUGUGCACUCGCUCGCAGACUGAUGACCCUGCUUGCUGCAGAUGAAUGGUCAACGCGAGCUAGGUUAGUUAGUGUGAUGUAUAAGGCGCCAUCAUUCCUCA | 0.657 |

Set 2
Target: ABI1, truncated, D143A, DHFR fusion (Arabidopsis thaliana)
Method: DHFR PCA, deep sequencing
Medium: yeast
Setting: methotrexate growth selection, single substitutions
Together with: (+)-ABA 710 µM
Relative to: wild-type fitted maximum
Direction: higher = stronger binding
Parent: PYL1, truncated, DHFR fusion (Arabidopsis thaliana); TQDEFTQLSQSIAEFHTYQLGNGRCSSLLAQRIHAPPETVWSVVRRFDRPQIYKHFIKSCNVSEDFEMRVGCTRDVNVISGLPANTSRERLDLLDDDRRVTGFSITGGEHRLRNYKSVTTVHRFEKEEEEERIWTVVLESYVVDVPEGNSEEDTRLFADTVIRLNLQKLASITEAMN; partner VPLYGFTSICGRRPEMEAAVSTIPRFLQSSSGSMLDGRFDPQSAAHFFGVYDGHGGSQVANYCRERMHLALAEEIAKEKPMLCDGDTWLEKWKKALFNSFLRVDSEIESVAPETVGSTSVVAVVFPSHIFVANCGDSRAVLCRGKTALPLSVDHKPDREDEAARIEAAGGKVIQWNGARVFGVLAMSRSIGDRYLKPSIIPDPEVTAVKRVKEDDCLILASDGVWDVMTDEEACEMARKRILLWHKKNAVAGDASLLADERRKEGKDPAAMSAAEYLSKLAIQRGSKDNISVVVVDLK
| Substitution | relative binding score [%] |
| --- | --- |
| G71C | 64.8 |
| N149I | 76.8 |
| I172Y | 96.5 |
| I79E | 87.1 |
| D3E | 107 |
| V62M | 98.7 |
| E174W | 79 |
| S80A | 76.8 |
| F15M | 90.3 |
| R46K | 97.2 |
| S171R | 102 |
| T160H | 90.3 |
| S150P | 49.3 |
| S11N | 92.3 |

Set 3
Target: Prothrombin, mature alpha-thrombin (F2, Homo sapiens, UniProt P00734)
Method: aptamer microarray, sandwich
Form: DNA with 2'F-ANA
Medium: in vitro
Concentration: 200 nM
Setting: whole 15-mer aptamer, many near background
Together with: Cy3 exosite-II aptamer, 400 nM
Direction: higher = stronger binding
Oligonucleotide: GGTTGGTGTGGTTGG
| Modification | mean fluorescence intensity |
| --- | --- |
| 2'F-ANA at 1 4 7 8 9 11 12 | 232 a.u. |
| 2'F-ANA at 2 4 7 8 10 14 15 | 71.5 a.u. |
| 2'F-ANA at 4 5 15 | 62.9 a.u. |
| 2'F-ANA at 1 2 6 10 11 12 13 14 | 48.4 a.u. |
| 2'F-ANA at 1 2 7 8 11 | 190 a.u. |
| 2'F-ANA at 3 4 9 | 791 a.u. |
| 2'F-ANA at 2 5 6 9 10 11 12 15 | 78.2 a.u. |
| 2'F-ANA at 1 2 3 4 6 10 11 14 | 50.1 a.u. |
| 2'F-ANA at 1 4 5 6 10 12 13 | 46.6 a.u. |
| 2'F-ANA at 3 5 6 7 11 13 14 15 | 65.1 a.u. |
| 2'F-ANA at 1 3 6 9 12 14 | 95.2 a.u. |
| 2'F-ANA at 1 2 6 8 12 13 14 | 63.9 a.u. |
| 2'F-ANA at 1 4 6 9 10 12 15 | 56.3 a.u. |
| 2'F-ANA at 1 3 5 6 7 10 12 14 15 | 48.6 a.u. |
| 2'F-ANA at 3 5 7 14 15 | 105 a.u. |
| 2'F-ANA at 3 5 6 8 9 12 13 15 | 151 a.u. |
| 2'F-ANA at 2 3 7 8 9 14 | 511 a.u. |
| 2'F-ANA at 3 4 7 8 9 10 11 12 | 358 a.u. |
| 2'F-ANA at 1 2 5 7 10 11 12 14 | 55.9 a.u. |
| 2'F-ANA at 3 4 6 7 8 13 | 580 a.u. |
| 2'F-ANA at 1 2 3 7 9 10 12 14 | 59.2 a.u. |
| 2'F-ANA at 1 6 9 10 11 12 14 | 48.7 a.u. |
| 2'F-ANA at 1 2 4 8 10 14 | 54.3 a.u. |

Set 4
Target: Histone acetyltransferase KAT6A, winged helix 1, GST fusion (KAT6A, Homo sapiens, UniProt Q92794, residues 1-85)
Method: protein binding microarray
Form: double-stranded DNA, one strand shown
Medium: in vitro
Concentration: not given
Setting: 8-mer, flanks averaged, mean of 2 arrays, mostly near background
Relative to: not given
Direction: higher = stronger binding
Construct (chain): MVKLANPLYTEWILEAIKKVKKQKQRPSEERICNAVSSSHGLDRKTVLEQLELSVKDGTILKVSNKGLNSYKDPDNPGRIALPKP
| Oligonucleotide | E-score |
| --- | --- |
| AGGGTGTG | -0.323 |
| CCGCGGAG | 0.365 |
| CATTACGA | 0.0165 |
| ACAGTAGG | -0.18 |
| CGCGAACC | 0.278 |
| GATCCCGA | 0.076 |
| ATGAGCGC | 0.275 |
| AATCACGG | 0.232 |
| ACATAAGA | -0.112 |
| CACCTCGG | 0.0953 |
| GATAACGC | 0.247 |
| CCTTACTA | -0.083 |
| AGCCTCAC | -0.287 |
| ACAGGAAT | -0.24 |
| CGGCACGC | 0.402 |
| GCTCGTCA | 0.046 |
| ACTCCAGT | -0.185 |
| CGATTCAG | -0.0736 |
| CTATGAAA | 0.0159 |
| CGGTCCCA | 0.135 |
| TCTATAGA | -0.0345 |
| CGCCTCAG | 0.21 |
| AAGCCGCC | 0.406 |
| ACAGAGGA | -0.198 |
| TAGACGCA | -0.0012 |

For quick reference, copied from above (set 3):
| Modification | mean fluorescence intensity |
| --- | --- |
| 2'F-ANA at 1 2 6 10 11 12 13 14 | 48.4 a.u. |
| 2'F-ANA at 1 2 7 8 11 | 190 a.u. |
| 2'F-ANA at 3 4 9 | 791 a.u. |
| 2'F-ANA at 2 5 6 9 10 11 12 15 | 78.2 a.u. |
| 2'F-ANA at 1 2 3 4 6 10 11 14 | 50.1 a.u. |
| 2'F-ANA at 1 4 5 6 10 12 13 | 46.6 a.u. |
